Experimental data pooled from the literature.
Protocols differ between the studies behind these lines. ± gives the spread as reported.
Target: Cytochrome P450 2D6 (CYP2D6, Homo sapiens, UniProt P10635)
UniProt P10635, sequence (whole entry, looked up): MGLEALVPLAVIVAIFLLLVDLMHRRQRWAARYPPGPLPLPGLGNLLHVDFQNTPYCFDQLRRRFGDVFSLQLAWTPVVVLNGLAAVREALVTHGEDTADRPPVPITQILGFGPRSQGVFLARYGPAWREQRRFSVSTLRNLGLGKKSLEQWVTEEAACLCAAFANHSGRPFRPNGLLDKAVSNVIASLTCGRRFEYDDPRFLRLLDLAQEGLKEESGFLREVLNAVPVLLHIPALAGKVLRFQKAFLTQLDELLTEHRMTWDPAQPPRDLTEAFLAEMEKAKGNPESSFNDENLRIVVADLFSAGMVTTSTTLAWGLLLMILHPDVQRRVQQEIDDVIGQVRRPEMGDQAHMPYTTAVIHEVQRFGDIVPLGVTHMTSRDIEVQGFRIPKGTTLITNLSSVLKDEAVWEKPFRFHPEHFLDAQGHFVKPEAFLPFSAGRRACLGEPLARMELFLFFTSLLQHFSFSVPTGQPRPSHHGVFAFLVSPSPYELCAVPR

Compound = N#C[C@H](C[C@@H]1CCCNC1=O)NC(=O)[C@H](CC1CC1)NC(=O)c1cc2cccc(Cl)c2[nH]1; assay = ISEF abundance scaling; setting = 2 µM, pH 7.4; endpoint = fraction metabolised; value = < 1%
Compound = C=CC(=O)Nc1cc(Nc2nccc(-c3cn(C)c4ccccc34)n2)c(OCC(F)(F)F)nc1N(C)CCN(C)C; assay = substrate depletion; test system = recombinant human CYP; setting = 1 µM; endpoint = intrinsic clearance; value = 0.3 µL/min/pmol
Compound = CN(C(=O)n1cnc(-c2ccc[n+]([O-])c2)c1)C1CCCCC1; assay = inhibitor; test system = pooled human liver microsomes; setting = 0.1 to 30 µg/mL, added: bufuralol; how to read = reference: control; endpoint = remaining activity; value = 85.1%
Compound = N#Cc1ccc([C@H]2CCc3cncn32)c(F)c1; assay = inhibitor, refers to: bufuralol 1'-hydroxylation; test system = pooled human liver microsomes; setting = pH 7.4, added: bufuralol 5 µM; endpoint = Ki; value = 2000 nM
Compound = CSc1ccccc1C(=O)NCCn1cc(C(=O)NCc2cccc(C)n2)c(=O)c2cc3c(cc21)OCO3; assay = enzyme activity, inhibitor; test system = human liver microsomes; setting = 20 min, 30 min NADPH preincubation, added: dextromethorphan 10 µM; endpoint = IC50; value = 72.1 µM
Compound = C[S+]([O-])CCCCN=C=S (centres unmarked); assay = enzyme activity; test system = human liver microsomes; setting = concentration not given, 10 min, added: dextromethorphan; endpoint = inhibition; value = 68%
Compound = Cc1cc(C)c(CNC(=O)c2cc(Cl)c3c(c2C)O[C@@](C)([C@H]2CC[C@H](N(C)C)CC2)O3)c(=O)[nH]1; test system = recombinant human CYP2D6; setting = 0 and 30 min; endpoint = CLint; value = 0.00644 µL/min/pmol
Compound = CSc1ccccc1C(=O)NCCn1cc(C(=O)NCc2cccc(C)n2)c(=O)c2cc3c(cc21)OC(F)(F)O3; assay = enzyme activity, inhibitor; test system = human liver microsomes; setting = 20 min, 30 min NADPH preincubation, added: dextromethorphan 10 µM; endpoint = IC50; value = > 100 µM
Compound = O=C(Nc1c2c(cc3c1CCC3)CCC2)NS(=O)(=O)/C=C/c1nccs1; test system = human liver microsomes; setting = 2 µM, pH 7.4, added: dextromethorphan; endpoint = inhibition; value = < 0%
Compound = C[C@H]1CN(C2COC2)CCN1c1ccc(Nc2cc(-c3ccnc(N4CCn5c(cc6c5CC(C)(C)C6)C4=O)c3CO)cn(C)c2=O)nc1; assay = substrate; test system = recombinant enzyme; setting = 1 µM, 60 min; endpoint = remaining compound; value = 98.4 ± 6.7%
Compound = O=C(O)c1cc(-c2ccc(-c3cc[nH]n3)cc2)c2ccc(-c3ccc(C(F)(F)F)cc3)cc2c1; setting = 10 µM; endpoint = inhibition; value = no inhibition
Compound = C[C@@H](c1ccc2nccn2c1)n1nnc2ncc(-c3cnn(C)c3)nc21; test system = human liver microsomes; setting = 10 and 50 µM, 30 min preincubation, pH 7.4, added: ± NADPH; endpoint = time-dependent inhibition; value = < 20%
Compound = C[C@]1(c2nc3c(C(N)=O)cccc3[nH]2)CCCN1; test system = human liver microsomes; setting = 100 µmol/L, 30 min; endpoint = other enzymes contribution to metabolism; value = 28%
Compound = CCNCc1cnn(-c2ccc(-n3ccc(Cl)c(Cl)c3=O)cc2)c1C(F)(F)F; assay = enzyme activity, inhibitor; test system = human liver microsomes; setting = 10 min; endpoint = IC50; value = 39.3 µM

Repeated from above:
Compound = CCNCc1cnn(-c2ccc(-n3ccc(Cl)c(Cl)c3=O)cc2)c1C(F)(F)F; assay = enzyme activity, inhibitor; test system = human liver microsomes; setting = 10 min; endpoint = IC50; value = 39.3 µM
